# Measurements pooled from the literature.
# Lines come from different studies, so protocols differ. ± marks the error that the study gave.
Compound,tested on,test,system,setting,scale,quantity,value
COc1cc(O)ccc1CCC(c1ccc(O)cc1)c1cc2c(c(C)c1O)OC(c1ccc(O)cc1)CC2 (mixture of isomers),,measured: 7-HDHA,human whole blood,"3 µM, together with: Escherichia coli",,amount,44 ± 16 pg/mL blood
CNS(=O)(=O)Nc1nccc(Cc2c(C)c3ccc(Oc4ncccc4F)cc3oc2=O)c1F,NB-4,cell viability,,7 days,,IC50,2.2 nM
COc1ccc(C(=O)CCc2cc(C(CCc3ccc(O)cc3OC)c3ccc(O)cc3)c(O)cc2OC)cc1 (racemic),,,human blood,"3 µM, together with: A23187",,PGD2 level,6 ± 6 pg/mL
C=CC(=O)Nc1cccc(Cn2ncc3cnc(Nc4cnn(CCOC)c4)nc32)c1,human ABL1(F317I)-nonphosphorylated,KINOMEscan,,100 nM,baseline: control,binding,77%
Cc1ncsc1-c1ccc(C(C)NC(=O)C2CC(O)CN2C(=O)C(NC(=O)CCCCCCCCCCN2CCCC(Nc3ncc(Cl)c(Nc4ccccc4S(=O)(=O)C(C)C)n3)C2)C(C)(C)C)cc1 (stereo not shown),22Rv1,"RNA-seq, measured: SOWAHB mRNA",,concentration not given,baseline: DMSO,log2 fold change,-2.82
CN1CCCNC(=O)c2cccc(c2)C(=O)NCCCN(C)CCCNc2cccc3c2C(=O)c2cccc(c2C3=O)NCCC1,SAS,"RNA-Seq, measured: NUMA1 mRNA",,"1 µM, 6 h",baseline: untreated cells,log2 fold change,-0.607
CN1CCC[C@]1(C)/C=C/S(=O)(=O)NC(=O)Nc1c2c(cc3c1CCC3)CCC2,,,"human, whole blood ex vivo","100 mg twice daily, day 14, 24 h, multiple ascending dose, together with: LPS and ATP",,IL-18 inhibition,93%
Nc1ncc(-c2cc(-c3cnn(CC(F)(F)F)c3)ncc2F)nc1C(=O)NC1CNCC(F)C1 (stereo not shown),SNARK,KINOMEscan competition binding,,1 µM,baseline: DMSO control,remaining binding,72%
COC1CN([C@H]2CC[C@H]([C@@]3(C)Oc4c(Cl)cc(C(=O)NCc5c(SC)cc(C)[nH]c5=O)c(C)c4O3)CC2)C1,,"RNA-seq, measured: WNK2","human, whole blood","dose not given, 24 h",baseline: pretreatment baseline,log2 fold change,6.2
CCN(CC)CC(=O)Nc1cccc(-n2cc(-c3ccc4ccc(-c5cn(-c6cccc(NC(=O)CN(CC)CC)c6)nn5)cc4c3)nn2)c1,RCC4,"PCR angiogenesis array, measured: S1PR1",,"5 x IC50, 4 h, normoxia",baseline: untreated,fold regulation,1.21
